Results from different studies.
Each numbered part is a random draw from the data of one study; scales do not carry over between parts.
UniProt Q04759, sequence (whole entry, looked up): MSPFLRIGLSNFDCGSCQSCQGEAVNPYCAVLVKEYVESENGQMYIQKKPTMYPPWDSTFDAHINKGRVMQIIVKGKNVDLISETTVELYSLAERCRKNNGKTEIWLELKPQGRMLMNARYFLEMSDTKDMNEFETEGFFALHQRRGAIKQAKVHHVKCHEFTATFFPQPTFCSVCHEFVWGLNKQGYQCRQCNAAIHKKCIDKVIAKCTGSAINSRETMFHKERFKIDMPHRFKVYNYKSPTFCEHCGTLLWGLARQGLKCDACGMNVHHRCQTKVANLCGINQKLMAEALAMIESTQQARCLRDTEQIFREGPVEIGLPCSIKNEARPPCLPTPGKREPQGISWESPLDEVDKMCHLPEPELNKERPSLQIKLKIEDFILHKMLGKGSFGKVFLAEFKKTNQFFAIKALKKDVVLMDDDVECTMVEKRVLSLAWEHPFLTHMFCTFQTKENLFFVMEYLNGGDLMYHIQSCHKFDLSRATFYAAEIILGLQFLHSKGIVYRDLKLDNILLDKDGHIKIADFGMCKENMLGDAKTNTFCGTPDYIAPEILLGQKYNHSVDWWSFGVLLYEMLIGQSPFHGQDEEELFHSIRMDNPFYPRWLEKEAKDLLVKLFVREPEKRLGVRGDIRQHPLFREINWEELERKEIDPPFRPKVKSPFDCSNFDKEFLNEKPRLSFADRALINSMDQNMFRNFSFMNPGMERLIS
UniProt P17948, sequence (whole entry, looked up): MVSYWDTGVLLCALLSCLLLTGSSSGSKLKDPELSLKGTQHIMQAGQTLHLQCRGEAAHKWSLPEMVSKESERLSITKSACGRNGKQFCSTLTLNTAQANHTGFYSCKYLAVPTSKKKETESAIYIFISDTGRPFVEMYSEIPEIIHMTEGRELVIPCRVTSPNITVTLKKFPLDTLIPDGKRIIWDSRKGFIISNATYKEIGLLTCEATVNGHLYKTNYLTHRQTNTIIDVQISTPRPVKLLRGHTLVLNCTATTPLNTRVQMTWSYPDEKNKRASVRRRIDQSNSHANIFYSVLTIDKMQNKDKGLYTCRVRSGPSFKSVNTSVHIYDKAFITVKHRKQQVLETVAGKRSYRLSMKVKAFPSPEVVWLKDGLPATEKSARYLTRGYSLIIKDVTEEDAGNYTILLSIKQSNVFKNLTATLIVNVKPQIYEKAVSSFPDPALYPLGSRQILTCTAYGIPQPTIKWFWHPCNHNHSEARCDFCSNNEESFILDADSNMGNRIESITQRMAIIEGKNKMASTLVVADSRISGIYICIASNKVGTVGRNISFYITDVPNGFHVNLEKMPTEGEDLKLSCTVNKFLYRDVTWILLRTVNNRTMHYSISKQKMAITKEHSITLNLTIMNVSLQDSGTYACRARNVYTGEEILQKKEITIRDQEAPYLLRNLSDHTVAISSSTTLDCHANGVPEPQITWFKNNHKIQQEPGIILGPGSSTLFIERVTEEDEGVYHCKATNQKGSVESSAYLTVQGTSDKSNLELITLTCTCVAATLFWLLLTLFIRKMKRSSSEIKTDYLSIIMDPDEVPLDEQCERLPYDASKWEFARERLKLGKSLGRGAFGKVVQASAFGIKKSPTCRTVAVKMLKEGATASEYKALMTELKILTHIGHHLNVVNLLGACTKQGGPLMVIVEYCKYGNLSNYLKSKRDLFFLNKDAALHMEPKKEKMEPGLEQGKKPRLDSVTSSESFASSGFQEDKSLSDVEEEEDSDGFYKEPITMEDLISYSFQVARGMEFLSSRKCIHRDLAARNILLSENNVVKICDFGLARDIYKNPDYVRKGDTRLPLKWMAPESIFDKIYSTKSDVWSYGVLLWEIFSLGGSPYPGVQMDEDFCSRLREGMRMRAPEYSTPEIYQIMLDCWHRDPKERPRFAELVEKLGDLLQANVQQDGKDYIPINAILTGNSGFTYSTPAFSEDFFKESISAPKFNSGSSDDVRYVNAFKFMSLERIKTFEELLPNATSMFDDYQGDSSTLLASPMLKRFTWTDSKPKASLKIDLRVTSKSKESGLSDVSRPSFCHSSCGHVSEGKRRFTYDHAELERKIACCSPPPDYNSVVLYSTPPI
UniProt O15197, sequence (whole entry, looked up): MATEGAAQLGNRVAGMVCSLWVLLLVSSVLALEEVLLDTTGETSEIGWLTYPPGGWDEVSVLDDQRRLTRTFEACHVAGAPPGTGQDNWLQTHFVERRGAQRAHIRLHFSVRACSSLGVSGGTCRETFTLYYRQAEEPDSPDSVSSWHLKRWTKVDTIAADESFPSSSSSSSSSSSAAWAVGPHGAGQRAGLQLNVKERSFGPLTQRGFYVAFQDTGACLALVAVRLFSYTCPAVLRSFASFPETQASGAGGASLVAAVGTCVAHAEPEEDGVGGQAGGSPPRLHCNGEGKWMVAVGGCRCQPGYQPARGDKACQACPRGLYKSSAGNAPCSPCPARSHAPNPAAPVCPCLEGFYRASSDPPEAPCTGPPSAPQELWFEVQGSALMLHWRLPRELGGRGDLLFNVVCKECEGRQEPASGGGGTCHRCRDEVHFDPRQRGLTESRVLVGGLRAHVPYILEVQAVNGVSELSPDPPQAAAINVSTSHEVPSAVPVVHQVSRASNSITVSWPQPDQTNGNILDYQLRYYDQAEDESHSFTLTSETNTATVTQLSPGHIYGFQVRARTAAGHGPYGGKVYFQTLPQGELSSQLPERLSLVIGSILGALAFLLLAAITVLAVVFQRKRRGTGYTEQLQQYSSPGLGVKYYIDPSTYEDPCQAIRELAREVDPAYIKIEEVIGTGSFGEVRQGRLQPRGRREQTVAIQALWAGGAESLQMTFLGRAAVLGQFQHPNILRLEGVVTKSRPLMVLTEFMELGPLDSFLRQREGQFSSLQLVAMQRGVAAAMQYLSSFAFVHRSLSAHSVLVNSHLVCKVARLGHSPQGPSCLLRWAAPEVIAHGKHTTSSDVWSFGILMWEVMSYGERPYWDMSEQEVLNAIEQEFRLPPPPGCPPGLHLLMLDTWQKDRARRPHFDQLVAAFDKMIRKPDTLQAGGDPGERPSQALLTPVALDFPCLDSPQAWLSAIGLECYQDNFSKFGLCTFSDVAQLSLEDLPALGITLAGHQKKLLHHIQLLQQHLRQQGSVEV
UniProt Q8N5S9, sequence (whole entry, looked up): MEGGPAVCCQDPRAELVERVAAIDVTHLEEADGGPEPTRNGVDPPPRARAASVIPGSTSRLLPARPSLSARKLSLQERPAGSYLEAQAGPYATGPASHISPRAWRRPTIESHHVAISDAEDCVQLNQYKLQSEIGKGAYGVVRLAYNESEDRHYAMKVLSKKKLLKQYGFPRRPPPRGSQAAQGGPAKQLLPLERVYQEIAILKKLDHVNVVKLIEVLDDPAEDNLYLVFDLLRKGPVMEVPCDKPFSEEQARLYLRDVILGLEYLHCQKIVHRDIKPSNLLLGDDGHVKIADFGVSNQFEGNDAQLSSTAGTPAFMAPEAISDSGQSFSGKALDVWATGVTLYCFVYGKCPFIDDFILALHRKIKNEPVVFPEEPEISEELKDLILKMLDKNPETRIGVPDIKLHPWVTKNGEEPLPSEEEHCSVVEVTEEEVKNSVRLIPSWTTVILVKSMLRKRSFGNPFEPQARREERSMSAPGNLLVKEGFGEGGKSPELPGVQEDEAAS
UniProt Q9HBY8, sequence (whole entry, looked up): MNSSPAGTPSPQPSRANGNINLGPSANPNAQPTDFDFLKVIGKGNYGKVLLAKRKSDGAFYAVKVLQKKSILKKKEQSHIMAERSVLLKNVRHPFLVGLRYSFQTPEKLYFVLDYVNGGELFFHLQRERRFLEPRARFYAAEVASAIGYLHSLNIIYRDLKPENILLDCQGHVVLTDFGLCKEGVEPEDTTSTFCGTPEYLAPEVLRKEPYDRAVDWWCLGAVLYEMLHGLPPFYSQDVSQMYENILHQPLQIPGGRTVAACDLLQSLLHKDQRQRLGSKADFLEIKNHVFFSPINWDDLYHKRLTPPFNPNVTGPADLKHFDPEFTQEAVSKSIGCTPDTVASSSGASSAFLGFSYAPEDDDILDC
UniProt Q96SB4, sequence (whole entry, looked up): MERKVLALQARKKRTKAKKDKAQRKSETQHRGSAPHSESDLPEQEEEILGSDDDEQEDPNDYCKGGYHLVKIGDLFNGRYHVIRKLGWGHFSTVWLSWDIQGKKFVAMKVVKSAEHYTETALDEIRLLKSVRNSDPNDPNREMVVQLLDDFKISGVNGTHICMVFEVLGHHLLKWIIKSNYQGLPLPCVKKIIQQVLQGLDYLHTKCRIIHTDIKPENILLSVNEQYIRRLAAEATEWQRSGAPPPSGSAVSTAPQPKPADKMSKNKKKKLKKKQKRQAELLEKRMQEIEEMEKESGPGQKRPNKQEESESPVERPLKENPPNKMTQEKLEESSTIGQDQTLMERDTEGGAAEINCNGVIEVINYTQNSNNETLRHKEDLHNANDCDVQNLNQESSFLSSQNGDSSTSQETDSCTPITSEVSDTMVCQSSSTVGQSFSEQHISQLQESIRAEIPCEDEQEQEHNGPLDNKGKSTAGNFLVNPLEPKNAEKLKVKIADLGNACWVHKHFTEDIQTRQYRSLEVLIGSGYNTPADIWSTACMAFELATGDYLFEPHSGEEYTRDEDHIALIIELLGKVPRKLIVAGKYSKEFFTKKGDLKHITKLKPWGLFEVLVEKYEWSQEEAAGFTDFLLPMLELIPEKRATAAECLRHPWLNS

Study 1 — observed: enzyme activity; mode: inhibitor; concentration: 10 µM
Target: Calcium/calmodulin-dependent protein kinase type II subunit alpha (CAMK2A, Homo sapiens, UniProt Q9UQM7)
UniProt Q9UQM7, sequence (whole entry, looked up): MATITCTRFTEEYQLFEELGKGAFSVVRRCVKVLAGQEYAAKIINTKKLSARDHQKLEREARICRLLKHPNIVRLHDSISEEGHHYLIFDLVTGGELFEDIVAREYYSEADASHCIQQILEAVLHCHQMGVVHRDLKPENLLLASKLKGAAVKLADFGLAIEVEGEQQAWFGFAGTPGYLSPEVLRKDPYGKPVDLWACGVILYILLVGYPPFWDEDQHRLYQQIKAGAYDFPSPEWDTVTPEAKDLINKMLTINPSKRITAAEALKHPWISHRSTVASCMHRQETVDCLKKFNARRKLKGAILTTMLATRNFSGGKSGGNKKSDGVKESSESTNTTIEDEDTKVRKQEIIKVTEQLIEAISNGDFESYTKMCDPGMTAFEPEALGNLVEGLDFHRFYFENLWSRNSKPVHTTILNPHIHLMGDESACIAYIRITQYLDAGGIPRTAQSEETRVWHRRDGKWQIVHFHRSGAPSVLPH
Compound | inhibition
O=[N+]([O-])c1ccc(O)c(O)c1 | 24%
C1CSCSC1 | -38%
COc1c(O[C@@H]2O[C@H](CO)[C@@H](O)[C@H](O)[C@H]2O)cc2oc(-c3ccc(O)cc3)cc(=O)c2c1O | -8%
CCCCCCCCCCC/C=C\CCCCC(=O)O | 12%
CC(C)=CCc1c(O)cc(O)c2c(=O)c(O[C@@H]3O[C@@H](C)[C@H](O)[C@@H](O)[C@H]3O)c(-c3ccc(O)cc3)oc12 | 3%
COc1cc(/C=C/C(=O)O[C@H]2[C@H](O)[C@@H](CO)O[C@@]2(CO)O[C@H]2O[C@H](COC(=O)c3ccc(O)cc3)[C@@H](O)[C@H](O)[C@H]2O)cc(OC)c1OC | -23%
O=C1C=CCO1 | -4%
CC1(C)[C@H]2CC[C@]1(C)C(=O)C2 | 4%
COc1ccc(C[C@H]2COC(=O)[C@]2(O)Cc2ccc(O[C@@H]3O[C@H](CO)[C@@H](O)[C@H](O)[C@H]3O)c(OC)c2)cc1OC | 36%
O=C1CN(/N=C/c2ccc([N+](=O)[O-])o2)C(=O)N1 | -14%
O=c1[nH]c(=O)c2ncn([C@@H]3O[C@H](CO)[C@@H](O)[C@H]3O)c2[nH]1 | -32%
O=C(Nc1nc(-c2cc(Cl)cs2)c(N2CCN(C3CCCCC3)CC2)s1)c1cnc(N2CCC(C(=O)O)CC2)c(Cl)c1 | 4%
COc1ccc(C(=O)O)cc1 | 29%
CC(C)=CCC[C@@](C)(O)[C@H]1CC[C@]2(C)[C@@H]1[C@H](O)C[C@@H]1[C@@]3(C)CC[C@H](O[C@@H]4O[C@H](CO)[C@@H](O)[C@H](O)[C@H]4O[C@@H]4O[C@H](CO)[C@@H](O)[C@H](O)[C@H]4O)C(C)(C)[C@@H]3CC[C@]12C | -32%
C/C1=C\CC[C@H](C)C(=O)C[C@@H](C(C)C)C(=O)C1 | -8%
COc1cc(C(C)=O)cc(OC)c1O | -79%

Study 2 — organism: Sarcocystis neurona; observed: parasite growth; concentration: 10 µM; time: 96 h; notes: second screen; baseline: untreated
Structure (SMILES) | log2 fold change
CN1[C@@H]2C[C@@H](OC(=O)[C@H](CO)c3ccccc3)C[C@H]1[C@@H]1O[C@@H]12 | 0.28
C[C@]12C=CC(=O)C=C1CC[C@@H]1[C@@H]2[C@@H](O)C[C@@]2(C)[C@H]1CC[C@]2(O)C(=O)CO | 0.36
CN(C)c1ccc(O)c2c1C[C@H]1C[C@H]3[C@H](N(C)C)C(O)=C(C(N)=O)C(=O)[C@@]3(O)C(O)=C1C2=O | -0.21
O=C(O)c1cc(/N=N/c2ccc(S(=O)(=O)Nc3ccccn3)cc2)ccc1O | 0.37
CC(COc1ccccc1)NC(C)C(O)c1ccc(O)cc1 (centres unmarked) | 0.28
CN1CCN(C2=Nc3ccccc3Oc3ccc(Cl)cc32)CC1 | 0.5
COc1cc2nc(N(C)CCCNC(=O)C3CCCO3)nc(N)c2cc1OC (centres unmarked) | 0.39
CC[C@@]1(O)C(=O)OCc2c1cc1n(c2=O)Cc2cc3c(CN(C)C)c(O)ccc3nc2-1 | 0.47
C=CC1=C(C(=O)O)N2C(=O)[C@@H](NC(=O)/C(=N\OCC(=O)O)c3csc(N)n3)[C@H]2SC1 | 0.11
CC1=C(CC(=O)O)c2cc(F)ccc2/C1=C\c1ccc([S+](C)[O-])cc1 (centres unmarked) | 0.48
COc1ccc2c3c1O[C@H]1C[C@@H](O)C=C[C@@]31CCN(C)C2 | 0.41
Cc1cc(NS(=O)(=O)c2ccc(N)cc2)no1 | 0.16
CCN1CCN(C(=O)N[C@@H](C(=O)N[C@@H]2C(=O)N3[C@@H]2SC(C)(C)[C@@H]3C(=O)O)c2ccccc2)C(=O)C1=O | 0.43
CC[C@H](C)C(=O)O[C@H]1C[C@H](O)C=C2C=C[C@H](C)[C@H](CC[C@@H](O)C[C@@H](O)CC(=O)O)[C@H]21 | 0.18
CC(=O)N1CCN(c2ccc(OCC3COC(Cn4ccnc4)(c4ccc(Cl)cc4Cl)O3)cc2)CC1 (centres unmarked) | 0.0634
O=C1NC(=O)C(c2ccccc2)(c2ccccc2)N1 | 0.08
CC(=O)NCCCCCCNC(C)=O | 0.25

Study 3 — observed: cell-free assay; method: competition with immobilised ligand; concentration: 1 µM
SMILES: CN(C)c1ncnc(-c2ccc3nc(Nc4cc(CN5CCN(C(=O)CC(F)(F)F)CC5)ccn4)[nH]c3c2)c1Cl
target | remaining binding [%]
PIK3CB (Homo sapiens, UniProt P42338) | 82
LRRK2 (Homo sapiens, UniProt Q5S007, G2019S) | 69
RIPK2 (Homo sapiens, UniProt O43353) | 37
CSNK1G2 (Homo sapiens, UniProt P78368) | 100
SGK1 (Homo sapiens, UniProt O00141) | 37
MAPK3 (Homo sapiens, UniProt P27361) | 100
STK35 (Homo sapiens, UniProt Q8TDR2) | 83
FLT3 (Homo sapiens, UniProt P36888, N841I) | 53
FES (Homo sapiens, UniProt P07332) | 100
FLT4 (Homo sapiens, UniProt P35916) | 63
PNCK (Homo sapiens, UniProt Q6P2M8) | 72
MAP3K7 (Homo sapiens, UniProt O43318) | 74
Tyrosine-protein kinase ABL1, non-phosphorylated (ABL1, Homo sapiens, UniProt P00519, T315I) | 46
FLT3 (Homo sapiens, UniProt P36888, R834Q) | 77
EPHB6 (Homo sapiens, UniProt O15197) | 69
SRPK3 (Homo sapiens, UniProt Q9UPE1) | 100
BRAF (Homo sapiens, UniProt P15056) | 83

Study 4 — SMILES: CC(C)n1cnc2c(Nc3cccc(Cl)c3)nc(NCCO)nc21; observed: enzyme activity; mode: inhibitor; concentration: 0.5 µM; baseline: control
target | remaining activity [%]
MAP3K20 (Homo sapiens, UniProt Q9NYL2) | 96.6
PRKCQ (Homo sapiens, UniProt Q04759) | 91.4
CSNK1D (Homo sapiens, UniProt P48730) | 48.5
RPS6KA3 (Homo sapiens, UniProt P51812) | 60.1
CLK1 (Homo sapiens, UniProt P49759) | 77.9
CAMK1 (Homo sapiens, UniProt Q14012) | 71.2
SGK2 (Homo sapiens, UniProt Q9HBY8) | 97.4
FLT1 (Homo sapiens, UniProt P17948) | 93.4
IGF1R (Homo sapiens, UniProt P08069) | 90
PAK1 (Homo sapiens, UniProt Q13153) | 97.1
CAMKK1 (Homo sapiens, UniProt Q8N5S9) | 88.2
SIK2 (Homo sapiens, UniProt Q9H0K1) | 107
SRPK1 (Homo sapiens, UniProt Q96SB4) | 61.7
MUSK (Homo sapiens, UniProt O15146) | 58.6
Cyclin-dependent kinase 2, with cyclin E (CDK2, Homo sapiens, UniProt P24941) | 37.1
EPHA2 (Homo sapiens, UniProt P29317) | 93.3
TEC (Homo sapiens, UniProt P42680) | 113
CLK2 (Homo sapiens, UniProt P49760) | 25
JAK1 (Homo sapiens, UniProt P23458) | 103
CSNK1E (Homo sapiens, UniProt P49674) | 65.4
TYRO3 (Homo sapiens, UniProt Q06418) | 92.7

Repeated from above (study 1):
Compound | inhibition
CC1(C)[C@H]2CC[C@]1(C)C(=O)C2 | 4%
O=c1[nH]c(=O)c2ncn([C@@H]3O[C@H](CO)[C@@H](O)[C@H]3O)c2[nH]1 | -32%
C1CSCSC1 | -38%
COc1ccc(C[C@H]2COC(=O)[C@]2(O)Cc2ccc(O[C@@H]3O[C@H](CO)[C@@H](O)[C@H](O)[C@H]3O)c(OC)c2)cc1OC | 36%
COc1cc(C(C)=O)cc(OC)c1O | -79%
CCCCCCCCCCC/C=C\CCCCC(=O)O | 12%
O=[N+]([O-])c1ccc(O)c(O)c1 | 24%
COc1ccc(C(=O)O)cc1 | 29%
COc1cc(/C=C/C(=O)O[C@H]2[C@H](O)[C@@H](CO)O[C@@]2(CO)O[C@H]2O[C@H](COC(=O)c3ccc(O)cc3)[C@@H](O)[C@H](O)[C@H]2O)cc(OC)c1OC | -23%
CC(C)=CCC[C@@](C)(O)[C@H]1CC[C@]2(C)[C@@H]1[C@H](O)C[C@@H]1[C@@]3(C)CC[C@H](O[C@@H]4O[C@H](CO)[C@@H](O)[C@H](O)[C@H]4O[C@@H]4O[C@H](CO)[C@@H](O)[C@H](O)[C@H]4O)C(C)(C)[C@@H]3CC[C@]12C | -32%
CC(C)=CCc1c(O)cc(O)c2c(=O)c(O[C@@H]3O[C@@H](C)[C@H](O)[C@@H](O)[C@H]3O)c(-c3ccc(O)cc3)oc12 | 3%
